# Published values collected from several papers.
# Every numbered part comes from another study and shows a few of its results, in no order.

# Study 1
# Target: TATA-box-binding protein 1 (TBP1, Arabidopsis thaliana, UniProt P28147, residues 1-200, full length assumed)
# Technique: protein-binding microarray
# Molecule type: double-stranded DNA, one strand shown
# Sample: in vitro
# Concentration: not given
# Setting: k-mer, scored over probes, only values ≥0.25
# Reading: higher = stronger binding
# Target sequence (chain): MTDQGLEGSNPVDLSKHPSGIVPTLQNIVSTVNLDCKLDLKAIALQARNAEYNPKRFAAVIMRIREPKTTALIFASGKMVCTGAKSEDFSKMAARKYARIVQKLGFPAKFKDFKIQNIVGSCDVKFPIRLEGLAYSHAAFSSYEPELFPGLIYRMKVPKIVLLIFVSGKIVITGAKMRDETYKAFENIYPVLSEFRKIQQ
Strand,E-score
TAGTATA,0.391
ATGTAAA,0.328
ATATATA,0.495
AATCTTA,0.29
ATATGCA,0.256
AATATAG,0.42

# Study 2
# Target: Sal-like protein 4, full length isoform B (SALL4, Homo sapiens, UniProt Q9UJQ4-2, residues 1-616)
# Technique: universal PBM
# Molecule type: double-stranded DNA, one strand shown
# Sample: in vitro
# Concentration: not given
# Setting: 8-mer, flanks averaged, mean of replicates
# Reading: higher = stronger binding
Strand,E-score
AGCGCACC,-0.132
ATTGATAG,0.218
GAGACTCC,-0.136
AGTCAGTA,0.0953
GGTTGAAC,-0.0703
CTTAGCAA,-0.0421

# Study 3
# Target: Interferon regulatory factor 7, full length, phosphomimetic (IRF7, Homo sapiens, UniProt Q92985, residues 1-503, S471D/S472D/S475D/S476D/S477D/S483D/S484D/S487D)
# Technique: protein-binding microarray
# Molecule type: double-stranded DNA, one strand shown
# Sample: in vitro
# Concentration: 2200 nM top
# Setting: 60-bp whole probe
# Together with: salmon DNA 0.4 mg/ml
# Baseline: random background probes
# Reading: higher = stronger binding
# Constant ends, left off below: GCCTAGCAC … GTCTTGATTCGCTTGACGCTGCTG
# Residues (chain): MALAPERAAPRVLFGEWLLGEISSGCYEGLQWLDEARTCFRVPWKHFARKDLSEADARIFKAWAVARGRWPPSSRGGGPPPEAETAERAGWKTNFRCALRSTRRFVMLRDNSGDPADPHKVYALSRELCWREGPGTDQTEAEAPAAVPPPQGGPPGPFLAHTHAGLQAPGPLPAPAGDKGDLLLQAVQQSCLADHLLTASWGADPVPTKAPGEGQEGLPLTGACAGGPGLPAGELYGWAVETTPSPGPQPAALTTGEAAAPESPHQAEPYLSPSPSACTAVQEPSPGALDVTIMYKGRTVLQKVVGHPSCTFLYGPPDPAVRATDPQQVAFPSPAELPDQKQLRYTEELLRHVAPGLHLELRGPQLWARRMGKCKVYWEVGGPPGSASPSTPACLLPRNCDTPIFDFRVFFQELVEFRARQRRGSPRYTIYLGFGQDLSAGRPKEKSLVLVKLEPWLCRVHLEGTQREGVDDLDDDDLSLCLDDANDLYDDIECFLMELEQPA
Strand,fitted relative affinity [z-score]
GTAGGTCTCCTTTTCCTTTAGTGCTAG,1.95
CCATCTCTGCTCCTTCTGACAGTGCTA,1.57
CTGTGGGAGGCCCGCGGGAGGTGCTAG,-1.46
GACGGTTTCCTATTCCTGACGTGCTAG,3.56
GCATTTTTTTTTTCTACTTCGTGCTAG,3.07
TTAGGTTTCGACTATCGGTCAGTGCTA,3.12
TTAGAACTGGGGTAGCGATTAGTGCTA,-0.748

# Single results of other studies
Molecule,target,assay,system,conditions,scale,endpoint,result
"PhoQ, residues 284 288 289 292 302 303 TSTLRA","PhoP, residues 12 14 15 18 19 AWHSL (Escherichia coli, UniProt P23836)","Sort-seq, refers to: YFP reporter",E. coli,"PhoQ-PhoP variant library, together with: 10 µM Mg2+","baseline: high Mg2+ state, higher = stronger signaling",fold induction,0.588

# Repeated from above (study 3):
Strand,fitted relative affinity [z-score]
GACGGTTTCCTATTCCTGACGTGCTAG,3.56
GCATTTTTTTTTTCTACTTCGTGCTAG,3.07
TTAGGTTTCGACTATCGGTCAGTGCTA,3.12
